Measurements gathered from unrelated publications.
Parts stem from different laboratories: compare values within a part only. Substitutions count along the parent as printed.

Block 1
Target: RING finger protein unkempt homolog, zinc fingers 1-6, GST-SBP tag (UNK, Homo sapiens, UniProt Q9C0B0, residues 30-357)
UniProt Q9C0B0, sequence (30-357, looked up): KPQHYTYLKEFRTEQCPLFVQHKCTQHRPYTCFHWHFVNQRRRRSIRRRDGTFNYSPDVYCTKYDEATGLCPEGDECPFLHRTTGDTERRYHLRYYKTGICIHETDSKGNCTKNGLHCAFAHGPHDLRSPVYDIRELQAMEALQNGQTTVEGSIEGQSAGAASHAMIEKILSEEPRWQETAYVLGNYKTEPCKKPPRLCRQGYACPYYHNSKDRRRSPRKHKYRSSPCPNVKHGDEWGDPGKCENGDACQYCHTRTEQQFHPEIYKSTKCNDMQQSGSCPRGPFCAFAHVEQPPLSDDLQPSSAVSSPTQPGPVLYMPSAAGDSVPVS
Technique: RNA Bind-n-Seq
Molecule type: RNA
Matrix: in vitro
Concentration: not given
Notes: RNA with constant flanks, human-mouse chimeric sites, ends assumed
Reference: input RNA pool
Reading: higher = stronger binding
Endpoint: bound/input enrichment
Shared flanks, not repeated: GGGAGUUCUACAGUCCGACGAUC … CAACAGAGGAUUGAGCAUCA
Strand = GAUCAUGAACCACCAUCCAGAAAUGAAGAUGAGACUACCAGACGAGCCAAAACAGCUGCGCUACAGAAAAGUAAACUUAACCUUGCAGAGUUCCUUAAUGAAGAUACAAGUUAAGAGAGC; value = 0.128 ratio
Strand = UUUGUAUUUAUGCUAAGCACGCGUGCUGGUGGUCUGGGCAUCAAUCUUGCAACUGCUGAUGUAGUCAUUUUGUAUGACUCAGAUUGGAAUCCGCAAGUUGAUCUUCAGGCUAUGGACCGU; value = 0.108 ratio
Strand = CAGUCCCCGUGUCCCAGGGGACAAUGUUGUGAACAAAAACUCAAAGCGGACCCUCUAUUGUAGUUCUUGAUUCUCGAAAUGUGCUAUUAUUGUUUGUCUUUUUUUUUAAAAGAAAAGAGA; value = 0.962 ratio
Strand = AAUUUCCGCAACUGUUUUUUAGACAUUCACAUCAGACUUACAGAGCACCUGGCCACAUUCUAGGUUUGUGUUAUUUCUCAGCUAUGGAUAUGAUCAAAGAGUGAAAAUGCUUAACUAAUG; value = 0.452 ratio
Strand = UUCAAAGAAAAGGGCAGUUCAUAAAUAACUUGGGAGACUCUGGGGGAGGGAAAUUCUGUUCUUUUGUUUAAUUUUCCCCCAAAUGAAGCCAAAGUGUGUGUUGAAGAACUGAGAAAAAAU; value = 0.161 ratio
Strand = AUGCAGUAUGAGACCAACAGCAUGGACUUCAAAGUUGGGGCAGAUGGGACAGUCUUCGCCACCCGGGAGUUGAAGAUCCCCUCCGAGCAGGUGGCGUUCACGGUGACUGCAUGGGACAGC; value = 0.192 ratio
Strand = AUAUUUCAUAUUGCAAAGAUGUUUACAAGUAUUUUAAUUUAAGUUCAGUGAACUUUUUUGUAGCUGGGUUAAAUCUUUUUAUUUUUAGUAUGGCCUUUGGCAAAGAACACUGUAUUAUUU; value = 1.3 ratio
Strand = UUUGUUUUCAUGUUAAGCACACGUGCUGGUGGUCUGGGCAUCAAUCUUGCAACUGCUGAUGUAGUCAUUUUAUAUGACUCAGAUUGGAAUCCGCAAGUUGAUCUUCAGGCUAUGGACCGU; value = 0.116 ratio

Block 2
Partner: H2BC13 (Homo sapiens, UniProt Q99880)
Technique: cross-linking MS
Notes: hits only
Endpoint: interaction screen
Substance = H2AZ1 (Homo sapiens, UniProt P0C0S5); value = cross-linked
Substance = H2AC7 (Homo sapiens, UniProt P20671); value = cross-linked
Substance = H2BC21 (Homo sapiens, UniProt Q16778); value = cross-linked
Substance = HMGA1 (Homo sapiens, UniProt P17096); value = cross-linked
Substance = H2BC12L (Homo sapiens, UniProt P57053); value = cross-linked

Block 3
Target: Histone acetyltransferase KAT6A, both winged helices, GST fusion (KAT6A, Homo sapiens, UniProt Q92794, residues 1-181)
Technique: protein binding microarray
Molecule type: double-stranded DNA, one strand shown
Matrix: in vitro
Concentration: not given
Notes: 8-mer, flanks averaged, mean of 2 arrays, mostly near background
Reference: not given
Reading: higher = stronger binding
Endpoint: E-score
Residues (chain): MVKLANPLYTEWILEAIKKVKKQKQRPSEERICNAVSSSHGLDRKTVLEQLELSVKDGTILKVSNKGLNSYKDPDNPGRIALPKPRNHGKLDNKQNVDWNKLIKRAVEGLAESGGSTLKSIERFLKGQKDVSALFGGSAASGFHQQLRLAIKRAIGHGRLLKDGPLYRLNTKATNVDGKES
Strand = AAGCGGGC; value = 0.116
Strand = AAAGGTCT; value = -0.151
Strand = ATGGCTTG; value = -0.0466
Strand = GCCCCGGC; value = 0.0844
Strand = AACGCGGC; value = 0.332
Strand = TAGGAGGA; value = -0.206
Strand = AAACATGA; value = 0.0412
Strand = AACACAGC; value = -0.0393

Further values, each from its own experiment
Starting sequence: viral docking peptide; KGVKRKLFAEDSS; partner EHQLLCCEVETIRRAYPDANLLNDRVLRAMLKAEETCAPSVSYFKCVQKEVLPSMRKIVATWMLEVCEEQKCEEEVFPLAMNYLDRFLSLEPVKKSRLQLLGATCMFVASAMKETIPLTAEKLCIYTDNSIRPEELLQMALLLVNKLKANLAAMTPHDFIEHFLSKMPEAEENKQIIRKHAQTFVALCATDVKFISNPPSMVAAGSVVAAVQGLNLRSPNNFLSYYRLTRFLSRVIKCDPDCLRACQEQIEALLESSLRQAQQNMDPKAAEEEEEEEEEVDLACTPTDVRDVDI
Variant = KGVKRKLFAADSS [E10A]; target = CCND1, cyclin fold, Cln2 fusion (human); assay = yeast growth competition, sequencing; system = yeast; conditions = strong parent motif; how to read = reference: not given, higher = stronger binding; endpoint = normalised enrichment score; value = 0.571

Excerpt of the above (block 1):
Strand = AAUUUCCGCAACUGUUUUUUAGACAUUCACAUCAGACUUACAGAGCACCUGGCCACAUUCUAGGUUUGUGUUAUUUCUCAGCUAUGGAUAUGAUCAAAGAGUGAAAAUGCUUAACUAAUG; value = 0.452 ratio
